Experimental data from different studies.
Every numbered part comes from another study and shows a few of its results, in no order.
UniProt P42336, sequence (whole entry, unmodified, looked up): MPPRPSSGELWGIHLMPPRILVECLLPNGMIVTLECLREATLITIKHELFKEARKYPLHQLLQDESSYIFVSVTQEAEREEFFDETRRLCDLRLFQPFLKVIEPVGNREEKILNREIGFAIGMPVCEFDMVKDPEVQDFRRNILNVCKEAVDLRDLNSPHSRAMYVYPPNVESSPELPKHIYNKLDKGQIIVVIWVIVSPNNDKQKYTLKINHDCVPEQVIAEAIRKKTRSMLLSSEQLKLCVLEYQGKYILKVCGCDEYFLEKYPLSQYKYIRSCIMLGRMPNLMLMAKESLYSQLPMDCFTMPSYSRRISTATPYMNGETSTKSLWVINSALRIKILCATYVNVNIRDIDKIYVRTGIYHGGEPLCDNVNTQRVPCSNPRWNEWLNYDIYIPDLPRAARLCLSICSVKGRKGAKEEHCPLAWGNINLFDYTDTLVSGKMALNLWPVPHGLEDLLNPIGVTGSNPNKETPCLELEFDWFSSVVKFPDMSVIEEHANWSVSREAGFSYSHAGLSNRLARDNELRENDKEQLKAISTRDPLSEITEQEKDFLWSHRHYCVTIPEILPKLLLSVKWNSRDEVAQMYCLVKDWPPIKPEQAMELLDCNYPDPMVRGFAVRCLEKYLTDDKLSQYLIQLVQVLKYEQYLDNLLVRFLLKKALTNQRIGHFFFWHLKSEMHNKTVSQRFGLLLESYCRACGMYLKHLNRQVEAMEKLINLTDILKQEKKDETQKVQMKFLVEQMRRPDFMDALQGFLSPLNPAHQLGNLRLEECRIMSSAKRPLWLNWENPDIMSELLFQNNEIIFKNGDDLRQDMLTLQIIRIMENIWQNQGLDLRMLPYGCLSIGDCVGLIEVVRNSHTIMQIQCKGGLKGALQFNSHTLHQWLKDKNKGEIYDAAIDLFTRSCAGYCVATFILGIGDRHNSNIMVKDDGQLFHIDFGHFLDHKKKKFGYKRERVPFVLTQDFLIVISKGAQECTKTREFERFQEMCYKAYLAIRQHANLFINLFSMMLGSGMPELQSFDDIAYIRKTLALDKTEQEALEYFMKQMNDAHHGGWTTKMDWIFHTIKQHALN
UniProt P29597, sequence (whole entry, looked up): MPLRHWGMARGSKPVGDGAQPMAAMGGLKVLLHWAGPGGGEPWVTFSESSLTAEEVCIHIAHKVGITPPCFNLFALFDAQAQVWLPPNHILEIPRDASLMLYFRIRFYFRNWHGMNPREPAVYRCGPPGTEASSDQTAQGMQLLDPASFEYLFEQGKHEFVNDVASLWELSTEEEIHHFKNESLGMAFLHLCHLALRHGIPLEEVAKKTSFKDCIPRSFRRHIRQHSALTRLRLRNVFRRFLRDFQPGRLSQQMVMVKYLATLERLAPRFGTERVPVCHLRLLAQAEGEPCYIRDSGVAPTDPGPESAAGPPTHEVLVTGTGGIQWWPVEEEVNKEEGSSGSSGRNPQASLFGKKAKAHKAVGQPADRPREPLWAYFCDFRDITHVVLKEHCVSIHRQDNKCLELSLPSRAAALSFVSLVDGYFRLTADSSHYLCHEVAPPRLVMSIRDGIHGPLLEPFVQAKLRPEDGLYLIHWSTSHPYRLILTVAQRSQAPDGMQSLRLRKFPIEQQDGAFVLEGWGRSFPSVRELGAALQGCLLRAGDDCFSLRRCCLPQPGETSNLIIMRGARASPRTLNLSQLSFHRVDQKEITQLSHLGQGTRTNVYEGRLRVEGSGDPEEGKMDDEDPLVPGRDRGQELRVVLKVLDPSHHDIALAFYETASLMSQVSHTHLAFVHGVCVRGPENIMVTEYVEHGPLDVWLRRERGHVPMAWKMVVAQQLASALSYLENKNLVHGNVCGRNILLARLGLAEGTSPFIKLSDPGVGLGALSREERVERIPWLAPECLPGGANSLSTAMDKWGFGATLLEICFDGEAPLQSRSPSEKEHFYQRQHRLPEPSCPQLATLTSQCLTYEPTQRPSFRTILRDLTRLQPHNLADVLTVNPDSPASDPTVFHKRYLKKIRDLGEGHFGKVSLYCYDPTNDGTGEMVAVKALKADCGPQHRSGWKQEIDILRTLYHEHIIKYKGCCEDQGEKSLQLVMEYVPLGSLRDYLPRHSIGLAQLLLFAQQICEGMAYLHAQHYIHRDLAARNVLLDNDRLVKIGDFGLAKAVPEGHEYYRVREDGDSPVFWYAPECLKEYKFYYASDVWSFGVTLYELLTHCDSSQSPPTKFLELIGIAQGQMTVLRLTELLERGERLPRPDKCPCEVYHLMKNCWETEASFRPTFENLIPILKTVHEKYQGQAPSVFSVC
UniProt Q8TF76, sequence (whole entry, looked up): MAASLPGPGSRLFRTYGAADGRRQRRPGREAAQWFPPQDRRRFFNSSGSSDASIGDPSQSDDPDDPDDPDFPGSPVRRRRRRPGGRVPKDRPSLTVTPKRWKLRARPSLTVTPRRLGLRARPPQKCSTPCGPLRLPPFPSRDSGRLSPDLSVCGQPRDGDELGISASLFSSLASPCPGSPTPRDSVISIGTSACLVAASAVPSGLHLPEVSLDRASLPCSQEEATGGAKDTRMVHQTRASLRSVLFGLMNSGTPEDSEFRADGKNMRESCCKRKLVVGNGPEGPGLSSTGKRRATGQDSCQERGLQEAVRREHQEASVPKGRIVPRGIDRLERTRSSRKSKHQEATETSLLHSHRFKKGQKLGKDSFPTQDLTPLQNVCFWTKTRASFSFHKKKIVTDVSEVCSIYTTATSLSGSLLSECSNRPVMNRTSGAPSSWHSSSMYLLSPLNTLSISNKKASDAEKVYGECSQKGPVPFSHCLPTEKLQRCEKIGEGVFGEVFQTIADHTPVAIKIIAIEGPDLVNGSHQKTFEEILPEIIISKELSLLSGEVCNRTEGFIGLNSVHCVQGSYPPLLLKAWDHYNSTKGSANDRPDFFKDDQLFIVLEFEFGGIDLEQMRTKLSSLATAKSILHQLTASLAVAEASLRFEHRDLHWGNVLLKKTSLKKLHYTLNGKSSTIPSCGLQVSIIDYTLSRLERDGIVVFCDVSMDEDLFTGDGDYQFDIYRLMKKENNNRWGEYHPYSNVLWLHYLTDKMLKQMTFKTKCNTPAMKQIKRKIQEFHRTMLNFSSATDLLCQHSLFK
UniProt Q2M2I8, sequence (whole entry, looked up): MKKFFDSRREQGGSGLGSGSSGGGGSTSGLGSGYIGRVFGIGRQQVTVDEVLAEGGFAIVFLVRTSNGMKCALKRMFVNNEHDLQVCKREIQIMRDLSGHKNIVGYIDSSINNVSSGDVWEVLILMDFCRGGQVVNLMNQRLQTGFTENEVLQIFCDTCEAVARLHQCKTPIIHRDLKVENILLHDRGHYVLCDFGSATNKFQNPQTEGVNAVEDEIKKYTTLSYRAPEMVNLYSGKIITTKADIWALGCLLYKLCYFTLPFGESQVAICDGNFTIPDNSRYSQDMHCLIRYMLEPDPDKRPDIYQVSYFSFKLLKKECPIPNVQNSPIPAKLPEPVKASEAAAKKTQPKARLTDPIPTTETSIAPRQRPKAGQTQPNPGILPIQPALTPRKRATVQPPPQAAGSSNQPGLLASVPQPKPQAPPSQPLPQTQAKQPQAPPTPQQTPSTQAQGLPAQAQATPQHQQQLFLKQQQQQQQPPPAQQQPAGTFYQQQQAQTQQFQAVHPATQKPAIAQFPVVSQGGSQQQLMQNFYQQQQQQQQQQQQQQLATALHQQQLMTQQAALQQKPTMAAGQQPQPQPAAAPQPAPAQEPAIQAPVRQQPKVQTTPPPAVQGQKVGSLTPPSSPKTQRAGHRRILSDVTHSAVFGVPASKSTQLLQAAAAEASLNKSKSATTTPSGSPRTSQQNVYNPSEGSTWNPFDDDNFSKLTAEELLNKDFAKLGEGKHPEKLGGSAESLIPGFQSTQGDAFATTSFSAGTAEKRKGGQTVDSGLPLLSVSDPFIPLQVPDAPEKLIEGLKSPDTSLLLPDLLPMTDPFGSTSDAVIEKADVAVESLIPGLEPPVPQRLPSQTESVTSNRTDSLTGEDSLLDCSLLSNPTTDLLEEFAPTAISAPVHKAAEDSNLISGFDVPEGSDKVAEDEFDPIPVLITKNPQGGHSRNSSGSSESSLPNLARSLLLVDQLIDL
UniProt Q6P3R8, sequence (whole entry, looked up): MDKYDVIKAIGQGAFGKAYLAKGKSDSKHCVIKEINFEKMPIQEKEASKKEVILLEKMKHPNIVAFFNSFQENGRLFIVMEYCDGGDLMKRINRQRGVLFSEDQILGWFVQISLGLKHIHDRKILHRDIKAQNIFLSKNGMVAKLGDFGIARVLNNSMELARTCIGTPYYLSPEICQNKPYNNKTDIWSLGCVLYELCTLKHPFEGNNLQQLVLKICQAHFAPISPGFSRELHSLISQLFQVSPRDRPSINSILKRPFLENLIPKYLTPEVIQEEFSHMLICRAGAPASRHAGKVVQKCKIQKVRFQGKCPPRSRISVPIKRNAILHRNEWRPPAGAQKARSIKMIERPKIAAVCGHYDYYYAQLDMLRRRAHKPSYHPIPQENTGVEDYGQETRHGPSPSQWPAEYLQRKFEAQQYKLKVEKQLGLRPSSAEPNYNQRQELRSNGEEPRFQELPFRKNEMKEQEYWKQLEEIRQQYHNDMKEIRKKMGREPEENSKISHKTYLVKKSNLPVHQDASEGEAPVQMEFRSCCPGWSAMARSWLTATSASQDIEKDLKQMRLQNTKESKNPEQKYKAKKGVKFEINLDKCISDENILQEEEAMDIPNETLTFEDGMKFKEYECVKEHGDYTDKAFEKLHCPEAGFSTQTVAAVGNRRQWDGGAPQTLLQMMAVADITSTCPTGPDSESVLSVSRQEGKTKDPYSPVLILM

Sample 1
SMILES: O=C(NS(=O)(=O)c1ccc(NCC2CCOCC2)c([N+](=O)[O-])c1)c1ccc(N2CCN(Cc3ccc(C(F)(F)F)cc3-c3ccc(Cl)cc3)CC2)cc1Oc1cnc2[nH]ccc2c1
Concentration: 1 µM
Measurement: remaining binding
EGFR (Homo sapiens, UniProt P00533, L858R); cell-free assay, competition with immobilised ligand: 90%
Non-receptor tyrosine-protein kinase TYK2, JH1 (TYK2, Homo sapiens, UniProt P29597); cell-free assay, competition with immobilised ligand: 84%
HASPIN (Homo sapiens, UniProt Q8TF76); cell-free assay, competition with immobilised ligand: 85%
PIK3CA (Homo sapiens, UniProt P42336, E542K); cell-free assay, competition with immobilised ligand: 98%
MAP3K15 (Homo sapiens, UniProt Q6ZN16); cell-free assay, competition with immobilised ligand: 84%
BMP2K (Homo sapiens, UniProt Q9NSY1); cell-free assay, competition with immobilised ligand: 94%
MAP4K2 (Homo sapiens, UniProt Q12851); cell-free assay, competition with immobilised ligand: 76%
PIK3CA (Homo sapiens, UniProt P42336, Q546K); cell-free assay, competition with immobilised ligand: 100%
AAK1 (Homo sapiens, UniProt Q2M2I8); binding: 98%
MET (Homo sapiens, UniProt P08581, Y1235D); cell-free assay, competition with immobilised ligand: 98%
NEK5 (Homo sapiens, UniProt Q6P3R8); cell-free assay, competition with immobilised ligand: 100%

Sample 2
Host: human
Sample: microsomes or S9
Concentration: 2 µM
Time: 0.5 h
Measurement: remaining compound
O=c1ccc(Br)cn1Cc1ccccc1Oc1ccccc1: 3.96%
Cc1cnn(CCNC(C)C(=O)Nc2sccc2C(N)=O)c1 (stereo not drawn): 99.2%
COc1ccc(CC(=O)OCCn2cc(Br)ccc2=O)nc1: 27.8%
CN(C(=O)CN1CCc2nc(N3CCCC3)[nH]c(=O)c2C1)C1CCCCC1: 85.4%
CC(C)NC(=O)NC(=O)C(C)N(C)Cc1ccccc1Br (stereo not drawn): 0.45%
CCCS(=O)(=O)N1CC(=O)Nc2ccc(Br)cc21: 65.9%
COc1ccc(C)cc1C1=CC(C)(c2cc(C)ccc2OC)Nc2nnnn21 (stereo not drawn): 14.9%
Cn1c(=O)n(-c2ccccn2)c(=O)c2c3c(sc21)COC(C)(C)C3: 92.4%
CC(C)COc1cc(=O)n2c(c1C(=O)N(C)CCc1ccccn1)CCCCC2: 49.8%

Sample 3
Cell line: HaCaT
Concentration: 100 µM
Time: 36 h
Measurement: viability
CC(=O)OCC(=O)[C@@]1(O)CC[C@H]2[C@@H]3CCC4=CC(=O)CC[C@]4(C)[C@@]3(F)[C@@H](O)C[C@@]21C: 93%
CCCC1O[C@@H]2C[C@H]3[C@@H]4CCC5=CC(=O)C=C[C@]5(C)[C@H]4[C@@H](O)C[C@]3(C)[C@]2(C(=O)CO)O1 (stereo partly drawn): 70.1%
CNC[C@H](O)c1cccc(O)c1: 83.3%
Nc1ccc2cc3ccc(N)cc3nc2c1: 17.8%
Nc1ccn([C@@H]2O[C@H](CO)[C@@H](O)C2(F)F)c(=O)n1: 26.3%
CCn1c(=O)c2c(nc(/C=C/c3ccc(OC)c(OC)c3)n2C)n(CC)c1=O: 80.7%
C=CC[N+]1([C@H]2C[C@H]3[C@@H]4CC[C@H]5C[C@H](O)[C@@H](N6CCOCC6)C[C@]5(C)[C@H]4CC[C@]3(C)[C@H]2OC(C)=O)CCCC1: 72.8%

Sample 4
Target: Serine/threonine-protein kinase VRK1 (VRK1, Homo sapiens, UniProt Q99986)
Observed: enzyme activity
Action: inhibitor
Concentration: 0.5 µM
Relative to: control
Measurement: remaining activity
Target sequence (Q99986 1-396): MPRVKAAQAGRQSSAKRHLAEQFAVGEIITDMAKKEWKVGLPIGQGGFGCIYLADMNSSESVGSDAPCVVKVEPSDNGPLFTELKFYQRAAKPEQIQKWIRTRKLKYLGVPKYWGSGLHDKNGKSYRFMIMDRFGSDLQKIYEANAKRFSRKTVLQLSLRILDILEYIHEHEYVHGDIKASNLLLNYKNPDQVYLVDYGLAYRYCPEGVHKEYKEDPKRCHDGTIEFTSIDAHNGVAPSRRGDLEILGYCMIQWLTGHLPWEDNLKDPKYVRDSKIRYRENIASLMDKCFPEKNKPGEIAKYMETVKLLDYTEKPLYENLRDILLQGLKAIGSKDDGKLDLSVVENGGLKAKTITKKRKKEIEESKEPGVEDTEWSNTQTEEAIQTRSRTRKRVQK
COc1ccc(S(=O)(=O)N(CCO)c2ccccc2CN(C)CC=Cc2ccc(Cl)cc2)cc1: 96.4%
O=S(=O)(NCCNC/C=C/c1ccc(Br)cc1)c1cccc2cnccc12: 80.1%
Cc1cc(Nc2nc(-c3ccccc3)nc3ccccc23)n[nH]1: 81%
CC[n+]1c(/C=C/N(C)c2ccccc2)n(-c2ccccc2)c2ccc(-c3nc4ccccc4s3)cc21: 90.9%
N#CC(=C(N)Sc1ccc(N)cc1)c1ccccc1C(F)(F)F: 100%
Cc1ccc(NC2=CC(=O)c3sc(C)nc3C2=O)cc1: 108%
Nc1ncnc2c1cnn2-c1ccccc1: 84.4%
Fc1ccc(-c2nc3n(c2-c2ccncc2)CCS3)cc1: 86.8%
CSc1nc(-c2ccnc(N[C@@H](C)c3ccccc3)c2)c(-c2ccc(F)cc2)[nH]1 (racemic): 94.1%

A few entries again (sample 2):
Cc1cnn(CCNC(C)C(=O)Nc2sccc2C(N)=O)c1 (stereo not drawn): 99.2%
COc1ccc(CC(=O)OCCn2cc(Br)ccc2=O)nc1: 27.8%
